Measurements from different studies.
Compare with care: the assays were run in different laboratories. Values joined by “and” are separate records of one study, mostly repeats; a detail may differ. ± gives the spread as reported. In brackets after ≈: the same amount, converted by molar mass.

SMILES | cell line | assay | system | setting | how to read | endpoint | value
CC(C)N1CCC(NC2CCN(c3cccc(-c4cc5cc(F)ccc5[nH]4)c3)CC2)CC1 | 786-0 | – | – | – | – | TGI | 3.26 µM
Nc1ncnc2c1ncn2[C@@H]1O[C@@H]2COP(=O)(O)O[C@H]3[C@@H](O)[C@H](n4cnc5c(=O)[nH]cnc54)O[C@@H]3COP(=O)(O)O[C@H]2[C@H]1O | HFF-1 | RNA sequencing, refers to: Reactome MHC class I peptide loading | – | upregulated pathways | reference: mock | fold enrichment | 15.3
Cn1cc(-c2ccc(-c3cncc(Cl)c3N3CCC4(CCNC4=O)CC3)cc2)cn1 | COLO 205 | gene expression, microarray, refers to: BIRC5 mRNA | – | concentration not given, 2 h | reference: untreated cells | log2 fold change | -2.41
Nc1ncc(-c2nc(N3CCOCC3)nc(N3CCOCC3)n2)c(C(F)F)n1 | Hs-578T | – | – | 72 h | – | GI50 | 0.111 µM
CC(=O)O[C@H]1C(=O)[C@@]2(C)[C@H]([C@H](OC(=O)c3ccccc3)[C@]3(O)C[C@H](OC(=O)[C@H](O)[C@@H](NC(=O)c4ccccc4)c4ccccc4)C(C)=C1C3(C)C)[C@]1(OC(C)=O)CO[C@@H]1C[C@@H]2O | HEK293T | cytotoxicity, CCK-8 | – | 12.5 µM, 72 h | – | inhibition | > 90%
Cc1nn(-c2nc3c(F)cc(F)cc3s2)c(O)c1C(c1ccc(C(F)(F)F)cc1)c1c(C)nn(-c2nc3c(F)cc(F)cc3s2)c1O | RAW-ISG | CCK-8 | – | 1.563 µM | – | viability | 101% and 110% and 105% and 100%
COc1c(C)c2c(c(O)c1C/C=C(\C)CCC(=O)O)C(=O)OC2 | CLS-439 | cell proliferation | – | – | – | IC50 | 0.468 µM
COc1ccc([C@H]2c3[nH]c4ccc(Cl)cc4c3CCN2C(=O)Oc2ccc(Cl)cc2)cc1 | CD19+ B cells with PBMC | cytokine secretion, refers to: s-IL-17F | – | 0.01 µM, 72 h, BioMAP BT system | – | inhibition | 58%
C[C@H]1[C@H](C)CC[C@]2(C(=O)O)CC[C@]3(C)C(=CC[C@@H]4[C@@]5(C)CC[C@H](O)C(C)(C)[C@@H]5CC[C@]43C)[C@H]12 | 3T3 | cell growth, MTT | – | 12.5 µg/mL, 48 h | – | cell survival | 70.47 ± 0.31%
COc1cc([C@@H]2c3cc4c(cc3C[C@H]3COC(=O)[C@@H]32)OCO4)cc(OC)c1OC | neuroblastoma M2 (−) | western blot | – | IC50 | reference: untreated | PARP cleavage | increased
CC(C)C[C@H](NC(=O)[C@H](CCc1ccccc1)NC(=O)CN1CCOCC1)C(=O)N[C@@H](Cc1ccccc1)C(=O)N[C@@H](CC(C)C)C(=O)[C@@]1(C)CO1 | patient normal conditionally reprogrammed cells | RNA-seq, refers to: DYNC1I1 mRNA | human | concentration not given | reference: DMSO | fold change | -20.2
O=S(=O)(c1ccc(O)cc1)c1ccc(O)cc1 | HepG2 spheroids | Hoechst flow cytometry | – | 0.1 µM, 24 h | – | S phase cells | 9.78 ± 1.53%
C/C=C(/C)C(=O)O[C@H]1C(C)=C2[C@H]([C@@H]1OC(=O)CCCCCCC)[C@@](C)(OC(C)=O)C[C@H](OC(=O)CCC)[C@@]1(O)[C@H]2OC(=O)[C@@]1(C)O | HEK293 | western blot, refers to: ATF4 | – | 3 µM, 6 h, unit not given | reference: mock | protein level | 1.17 and 1.24 and 1.47
C[C@]12CC[C@H](O)CC1=CC[C@@H]1[C@@H]2CC[C@]2(C)C(n3cnc4ccccc43)=CC[C@@H]12 | LNCaP, C4-2B and CWR22Rv1 | cell growth, MTT | – | mean of three lines | – | GI50 | 0.38 µM
Cc1cc(NS(=O)(=O)c2ccc(NC(=O)/C(C#N)=C/c3ccc(N4CCCCC4)cc3)cc2)no1 | HCT-116 | ELISA, refers to: CDH1 | – | IC50, 48 h, unit not given | reference: untreated | protein level | 2.46
C/C=C(/C)C(=O)O[C@H]1C(C)=C2[C@H]([C@@H]1OC(=O)CCCCCCC)[C@@](C)(OC(C)=O)C[C@H](OC(=O)CCC)[C@@]1(O)[C@H]2OC(=O)[C@@]1(C)O | HEK-293T | RNA-seq GSEA, refers to: Hallmark p53 pathway | – | 500 nM, 6 h | direction not given | normalized enrichment score | 1.9
Cc1cc(C(C)(C)c2ccc(O)c(C)c2)ccc1O | HepG2 spheroids | Hoechst flow cytometry | – | 1 µM, 96 h | – | G2 phase cells | 21.1 ± 3.92%
CN1CCN(S(=O)(=O)c2cc([N+](=O)[O-])ccc2N(CCOS(C)(=O)=O)CCOS(C)(=O)=O)CC1 | sample J MLL-ALL PDX cells | cell viability | ex vivo | – | – | IC50 | 0.0082 µM

SMILES | cell line | assay | system | setting | how to read | endpoint | value
CN1CCN(C2(CNC3CCN(c4cccc(-c5cc6cc(F)ccc6[nH]5)c4)CC3)CCC2)CC1 | SK-MEL-2 | – | – | – | – | GI50 | 2.13 µM
COc1cc(CCC[P+](c2ccccc2)(c2ccccc2)c2ccccc2)c(OC)c2c1OCO2.[I-] | SK-MEL-2 | SRB | – | – | – | LC50 | -4.27 log M
COc1ccc2c(c1)[nH]c1c(C)nccc12 | DU-145 | bisulfite pyrosequencing, refers to: RASSF1A promoter CpG site 12 | – | concentration not given | reference: vehicle | methylation reduction | 2.73%
CCN(CC)c1ccc(C=NNC(=O)CSc2nc3ccccc3c(=O)n2Cc2ccc(S(N)(=O)=O)cc2)c(O)c1 | SK-MEL-28 | NCI five-dose screen | – | – | – | CC50 | > 100 µM
Cn1cncc1C1=CN(c2ncnc3[nH]cnc23)CCS1 | CCRF-CEM | – | – | leukaemia cell line | – | CC50 | > 200 µM
COc1cc2c(O)c3c(c(-c4ccc5c(c4)OCO5)c2cc1OC)C(=O)OC3 | HEK293 | BCECF-AM | – | concentration not given, 4 h | reference: vehicle | cytosolic pH | no effect
COc1cc(N2CC[C@@]3(O)C(=O)c4cc(C)c(C)cc4N=C23)ccn1 | COS-7 | cytokinesis | – | – | – | maximal inhibition | ~100%
COc1c(CCC[P+](c2ccccc2)(c2ccccc2)c2ccccc2)cc2c(c1OC)OCO2.[I-] | PC-3 | SRB | – | – | – | LC50 | > -4 log M
Oc1ccc(C2(c3ccc(O)cc3)c3ccccc3-c3ccccc32)cc1 | HepG2 spheroids | planimetry | – | 2.5 µM, 0 to 24 h | reference: mean area of 72 h spheroids | spheroid area increase | 122%
C[C@]12CC[C@H](O)C[C@H]1CC[C@@H]1[C@@H]2CC[C@]2(C)[C@@H](c3ccc(=O)oc3)CC[C@]12O | MCF7 | luciferase | – | 50 nM, unit not given | reference: untreated | ERE reporter activity | 0.414 and 0.777 and 0.689
O=C1CCP(=S)(c2ccccc2)CC1 | PC-3 | Annexin V-FITC/PI flow cytometry | – | IC50, 72 h | – | late apoptotic cells | 95.5%
Oc1ccc(C(c2ccc(O)cc2)(C(F)(F)F)C(F)(F)F)cc1 | HepG2 spheroids | Hoechst flow cytometry | – | 40 µM, 24 h | – | G2 phase cells | 23.9 ± 3.25%
CC(C)=CCc1c(O)cc(O)cc1-c1cc2ccc(O)c(CC=C(C)C)c2o1 | 3T3 | cell growth, MTT | – | 25 µg/mL, 48 h | – | cell survival | 61.76 ± 0.43%
Cc1cccc(-c2cccc(C)n2)n1.Cc1cccc(-c2cccc(C)n2)n1.F[P-](F)(F)(F)(F)F.F[P-](F)(F)(F)(F)F.[Ru+2].c1ccc2cc(-c3nc4c5cccnc5c5ncccc5c4[nH]3)ccc2c1 | SK-MEL-28 | – | – | normoxia, added: blue light 453 nm, 100 J/cm2 | reference: dark over light EC50 | phototoxicity index | 1
Oc1cc(O)cc(-c2cc3ccc(O)cc3o2)c1 | 3T3 | cell growth, MTT | – | 1.8 µg/mL, 48 h | – | cell survival | 83.62 ± 0.42%
C#CCCC[C@H]1OC(=O)[C@H](C(C)C)N(C)C(=O)[C@@H]2CCCN2C(=O)[C@H]([C@@H](C)CC)OC(=O)[C@H]([C@@H](C)CC)N(C)C(=O)[C@H]([C@@H](C)CC)NC(=O)[C@H]1C | hiPSC-derived nociceptors | multi-well microelectrode array | – | 30 µM, within first hour, 37 °C | reference: DMSO | neuronal activity reduction | ~60%
Cc1ccc2c(c1)C=Cc1cc(C)ccc1C2c1cn(Cc2ccc(C(=O)Nc3nn[nH]n3)o2)c(=O)[nH]c1=S | N2a | fluorescence signal increase, inhibitor, live-cell imaging | – | 1 µM, decay phase only, added: ATP 300 µM | – | inhibition | 36%
CC(C)(O/N=C(\C(=O)N[C@@H]1C(=O)N2C(C(=O)[O-])=C(C[n+]3ccccc3)CS[C@H]12)c1csc(N)n1)C(=O)O | Escherichia coli DH5α expressing KPC-25 | bacterial growth | – | – | – | MIC | 64 µg/mL (≈ 117 µM)

Excerpt of the above:
SMILES | cell line | assay | system | setting | how to read | endpoint | value
Oc1ccc(C2(c3ccc(O)cc3)c3ccccc3-c3ccccc32)cc1 | HepG2 spheroids | planimetry | – | 2.5 µM, 0 to 24 h | reference: mean area of 72 h spheroids | spheroid area increase | 122%
C[C@]12CC[C@H](O)C[C@H]1CC[C@@H]1[C@@H]2CC[C@]2(C)[C@@H](c3ccc(=O)oc3)CC[C@]12O | MCF7 | luciferase | – | 50 nM, unit not given | reference: untreated | ERE reporter activity | 0.414 and 0.777 and 0.689
O=C1CCP(=S)(c2ccccc2)CC1 | PC-3 | Annexin V-FITC/PI flow cytometry | – | IC50, 72 h | – | late apoptotic cells | 95.5%
